Results pooled from the literature.
Every numbered part comes from another study and shows a few of its results, in no order.
Sequence of UniProt P53350 (whole entry, looked up): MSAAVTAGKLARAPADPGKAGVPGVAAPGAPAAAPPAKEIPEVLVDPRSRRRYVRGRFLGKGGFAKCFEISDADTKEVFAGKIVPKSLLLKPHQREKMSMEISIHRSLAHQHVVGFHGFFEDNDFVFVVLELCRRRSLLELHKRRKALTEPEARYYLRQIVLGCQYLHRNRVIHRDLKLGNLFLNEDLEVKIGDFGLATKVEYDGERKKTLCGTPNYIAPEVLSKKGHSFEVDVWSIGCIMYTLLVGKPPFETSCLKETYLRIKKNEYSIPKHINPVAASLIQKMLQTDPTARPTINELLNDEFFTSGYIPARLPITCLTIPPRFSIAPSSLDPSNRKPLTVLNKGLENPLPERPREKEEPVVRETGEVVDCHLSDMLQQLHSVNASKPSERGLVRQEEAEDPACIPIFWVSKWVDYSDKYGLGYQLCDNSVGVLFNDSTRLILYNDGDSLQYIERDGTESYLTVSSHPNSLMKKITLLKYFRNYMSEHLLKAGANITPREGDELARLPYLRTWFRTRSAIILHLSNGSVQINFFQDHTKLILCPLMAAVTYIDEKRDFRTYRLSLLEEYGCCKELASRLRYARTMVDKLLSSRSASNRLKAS
Sequence of UniProt P07949 (whole entry, looked up): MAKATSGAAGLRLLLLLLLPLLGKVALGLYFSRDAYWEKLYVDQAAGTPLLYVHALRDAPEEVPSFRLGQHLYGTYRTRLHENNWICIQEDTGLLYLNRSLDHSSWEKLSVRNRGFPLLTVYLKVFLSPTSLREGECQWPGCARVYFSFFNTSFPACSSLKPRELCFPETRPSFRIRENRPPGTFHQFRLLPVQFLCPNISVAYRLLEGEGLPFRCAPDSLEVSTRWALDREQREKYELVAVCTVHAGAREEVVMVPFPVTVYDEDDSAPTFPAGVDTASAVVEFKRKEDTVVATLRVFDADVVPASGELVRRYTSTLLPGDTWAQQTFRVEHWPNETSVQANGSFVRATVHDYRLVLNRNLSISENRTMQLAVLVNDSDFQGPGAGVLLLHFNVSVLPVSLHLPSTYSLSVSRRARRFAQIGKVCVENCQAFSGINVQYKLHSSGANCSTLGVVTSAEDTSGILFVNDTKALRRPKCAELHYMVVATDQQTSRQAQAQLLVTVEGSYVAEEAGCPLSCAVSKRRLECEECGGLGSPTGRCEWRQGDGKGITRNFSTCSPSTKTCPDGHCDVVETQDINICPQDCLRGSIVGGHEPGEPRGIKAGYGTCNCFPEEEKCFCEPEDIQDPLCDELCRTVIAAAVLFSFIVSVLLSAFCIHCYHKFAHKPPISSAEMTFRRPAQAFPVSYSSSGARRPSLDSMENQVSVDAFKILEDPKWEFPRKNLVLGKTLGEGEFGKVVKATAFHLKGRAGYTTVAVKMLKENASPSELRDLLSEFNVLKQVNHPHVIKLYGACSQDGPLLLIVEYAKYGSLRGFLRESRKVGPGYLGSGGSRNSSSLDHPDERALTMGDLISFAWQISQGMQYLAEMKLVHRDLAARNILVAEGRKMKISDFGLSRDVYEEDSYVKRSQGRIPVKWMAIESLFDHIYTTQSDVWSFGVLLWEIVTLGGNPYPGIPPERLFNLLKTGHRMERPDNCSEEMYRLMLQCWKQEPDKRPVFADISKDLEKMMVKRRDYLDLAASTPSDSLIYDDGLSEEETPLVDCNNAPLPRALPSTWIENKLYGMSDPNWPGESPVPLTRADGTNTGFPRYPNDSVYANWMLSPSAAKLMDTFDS
Sequence of UniProt P29320 (whole entry, looked up): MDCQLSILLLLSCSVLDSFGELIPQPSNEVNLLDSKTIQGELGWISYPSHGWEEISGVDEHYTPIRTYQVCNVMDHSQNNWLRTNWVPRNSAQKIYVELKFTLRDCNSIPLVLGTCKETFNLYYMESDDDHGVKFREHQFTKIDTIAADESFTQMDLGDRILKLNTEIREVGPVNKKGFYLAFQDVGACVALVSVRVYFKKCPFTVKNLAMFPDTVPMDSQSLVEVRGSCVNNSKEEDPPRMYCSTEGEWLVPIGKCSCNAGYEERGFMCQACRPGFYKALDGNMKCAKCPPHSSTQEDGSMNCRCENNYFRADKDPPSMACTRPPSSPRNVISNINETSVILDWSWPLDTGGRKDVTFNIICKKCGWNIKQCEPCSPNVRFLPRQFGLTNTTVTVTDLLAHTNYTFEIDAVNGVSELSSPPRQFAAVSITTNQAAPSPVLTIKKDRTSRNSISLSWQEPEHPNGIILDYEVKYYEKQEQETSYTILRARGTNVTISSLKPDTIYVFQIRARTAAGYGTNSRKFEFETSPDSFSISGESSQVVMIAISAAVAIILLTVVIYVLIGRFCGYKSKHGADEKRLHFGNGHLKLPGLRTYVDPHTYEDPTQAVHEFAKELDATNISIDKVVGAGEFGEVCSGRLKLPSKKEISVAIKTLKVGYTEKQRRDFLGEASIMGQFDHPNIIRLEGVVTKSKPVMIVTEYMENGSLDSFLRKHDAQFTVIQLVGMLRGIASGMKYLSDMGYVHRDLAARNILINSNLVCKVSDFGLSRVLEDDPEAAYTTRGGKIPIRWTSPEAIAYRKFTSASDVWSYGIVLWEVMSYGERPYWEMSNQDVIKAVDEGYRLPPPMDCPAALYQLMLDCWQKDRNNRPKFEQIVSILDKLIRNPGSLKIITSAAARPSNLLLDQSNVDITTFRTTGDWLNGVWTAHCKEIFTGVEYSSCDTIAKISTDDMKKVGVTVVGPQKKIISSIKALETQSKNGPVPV
Sequence of UniProt P50613 (whole entry, looked up): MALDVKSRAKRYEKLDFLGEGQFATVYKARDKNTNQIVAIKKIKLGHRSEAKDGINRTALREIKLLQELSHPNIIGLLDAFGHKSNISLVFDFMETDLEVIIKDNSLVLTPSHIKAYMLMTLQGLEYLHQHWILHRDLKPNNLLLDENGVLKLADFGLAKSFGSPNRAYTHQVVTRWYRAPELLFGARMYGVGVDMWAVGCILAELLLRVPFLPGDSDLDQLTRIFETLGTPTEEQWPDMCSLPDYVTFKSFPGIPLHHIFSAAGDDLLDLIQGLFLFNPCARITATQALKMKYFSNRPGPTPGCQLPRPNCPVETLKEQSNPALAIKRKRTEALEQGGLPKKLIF
Sequence of UniProt P48736 (whole entry, looked up): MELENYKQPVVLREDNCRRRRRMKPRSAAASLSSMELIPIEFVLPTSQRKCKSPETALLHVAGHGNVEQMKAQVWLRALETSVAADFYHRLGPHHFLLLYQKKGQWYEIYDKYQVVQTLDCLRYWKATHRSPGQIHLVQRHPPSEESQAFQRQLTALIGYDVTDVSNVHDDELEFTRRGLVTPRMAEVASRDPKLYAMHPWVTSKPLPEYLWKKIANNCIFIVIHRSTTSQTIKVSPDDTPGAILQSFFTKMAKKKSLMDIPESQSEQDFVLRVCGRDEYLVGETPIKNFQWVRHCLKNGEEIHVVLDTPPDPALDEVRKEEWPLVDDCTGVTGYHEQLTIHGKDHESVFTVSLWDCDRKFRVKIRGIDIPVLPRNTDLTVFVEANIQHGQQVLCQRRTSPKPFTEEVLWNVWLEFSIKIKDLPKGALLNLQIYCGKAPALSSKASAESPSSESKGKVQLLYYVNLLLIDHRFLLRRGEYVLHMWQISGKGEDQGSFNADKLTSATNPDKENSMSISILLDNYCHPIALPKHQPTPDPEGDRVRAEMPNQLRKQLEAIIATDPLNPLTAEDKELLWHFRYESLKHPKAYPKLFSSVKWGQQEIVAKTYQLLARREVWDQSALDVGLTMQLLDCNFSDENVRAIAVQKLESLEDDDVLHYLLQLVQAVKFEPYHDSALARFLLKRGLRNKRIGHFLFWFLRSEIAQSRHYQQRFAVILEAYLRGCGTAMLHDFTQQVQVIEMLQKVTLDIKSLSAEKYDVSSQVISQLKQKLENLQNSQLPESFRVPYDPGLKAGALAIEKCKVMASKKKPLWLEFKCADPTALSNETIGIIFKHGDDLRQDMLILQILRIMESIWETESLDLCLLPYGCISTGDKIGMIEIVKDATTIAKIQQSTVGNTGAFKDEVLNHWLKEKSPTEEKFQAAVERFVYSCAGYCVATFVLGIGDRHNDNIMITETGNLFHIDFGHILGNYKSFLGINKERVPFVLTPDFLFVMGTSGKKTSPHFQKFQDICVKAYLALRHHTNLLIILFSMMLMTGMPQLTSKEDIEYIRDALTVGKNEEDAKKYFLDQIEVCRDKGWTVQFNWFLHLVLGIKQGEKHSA
Sequence of UniProt Q04771 (whole entry, looked up): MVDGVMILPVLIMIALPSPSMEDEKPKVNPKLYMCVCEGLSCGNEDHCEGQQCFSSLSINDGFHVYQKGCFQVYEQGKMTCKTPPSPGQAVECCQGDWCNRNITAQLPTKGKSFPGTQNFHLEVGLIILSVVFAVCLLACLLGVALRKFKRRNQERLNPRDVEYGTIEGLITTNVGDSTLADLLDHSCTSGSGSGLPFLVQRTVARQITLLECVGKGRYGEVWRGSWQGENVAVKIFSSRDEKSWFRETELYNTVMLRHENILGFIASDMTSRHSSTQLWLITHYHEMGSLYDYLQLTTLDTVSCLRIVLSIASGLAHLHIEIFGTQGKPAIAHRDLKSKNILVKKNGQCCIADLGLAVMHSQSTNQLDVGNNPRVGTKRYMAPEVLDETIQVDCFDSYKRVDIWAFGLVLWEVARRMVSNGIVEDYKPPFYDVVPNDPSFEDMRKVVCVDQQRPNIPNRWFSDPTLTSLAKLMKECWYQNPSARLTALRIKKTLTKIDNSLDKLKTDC

Study 1
Compound: [2H]c1c([2H])c([C@]2([2H])CCCN2C(=O)C(C)(C)Oc2ccc3cn[nH]c3c2)c([2H])c([2H])c1C([2H])([2H])[2H]
Observed: binding
Method: competition with immobilised ligand
Concentration: 1 µM
target | remaining binding
Ephrin type-B receptor 3 (EPHB3, Homo sapiens, UniProt P54753) | 73%
Proto-oncogene tyrosine-protein kinase receptor Ret (RET, Homo sapiens, UniProt P07949) | 73%
Cyclin-dependent kinase 7 (CDK7, Homo sapiens, UniProt P50613) | 86%
Cyclin-dependent kinase 4, with cyclin D1 (CDK4, Homo sapiens, UniProt P11802) | 92%
Ephrin type-A receptor 3 (EPHA3, Homo sapiens, UniProt P29320) | 81%
Myotonin-protein kinase (DMPK, Homo sapiens, UniProt Q09013) | 69%
Serine/threonine-protein kinase PLK1 (PLK1, Homo sapiens, UniProt P53350) | 99%
Activin receptor type-1 (ACVR1, Homo sapiens, UniProt Q04771) | 74%

Single results of other studies
CSNK1A1: Casein kinase I isoform alpha (CSNK1A1, Homo sapiens, UniProt P48729)
Sequence of UniProt P48729 (whole entry, looked up): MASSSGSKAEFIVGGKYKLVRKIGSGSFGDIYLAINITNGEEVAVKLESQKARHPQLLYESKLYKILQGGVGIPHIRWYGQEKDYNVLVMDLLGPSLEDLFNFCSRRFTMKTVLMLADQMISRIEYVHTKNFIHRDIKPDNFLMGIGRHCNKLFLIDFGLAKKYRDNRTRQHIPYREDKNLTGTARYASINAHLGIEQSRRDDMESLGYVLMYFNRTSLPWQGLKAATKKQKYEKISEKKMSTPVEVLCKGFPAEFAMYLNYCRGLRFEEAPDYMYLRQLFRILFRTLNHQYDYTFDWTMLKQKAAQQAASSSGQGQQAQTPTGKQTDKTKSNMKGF
Structure (SMILES) | tested on | assay | setting | measurement | result
CCCCC(=O)Nc1ccc(-c2ccc3ncn(CCC)c(=O)c3c2)cn1 | Phosphatidylinositol 4,5-bisphosphate 3-kinase catalytic subunit alpha isoform (PIK3CA, Homo sapiens, UniProt P42336, I800L) | binding, competition with immobilised ligand | 0.5 µM | remaining binding | 66%
O=c1[nH]c(N2CCCC2)nc2ccccc12 | CSNK1A1 | binding, SPR |  | Kd | 46.3 µM
C1=C/COCc2cc(ccc2OCCN2CCCC2)Nc2nccc(n2)-c2cccc(c2)COC/1 | Epidermal growth factor receptor (EGFR, Homo sapiens, UniProt P00533, G719S) | binding | 0.1 µM | remaining binding | 84%
Cc1noc(NS(=O)(=O)c2ccc(N=NN(C)O)cc2)c1C |  | DPPH scavenging, absorbance | 120 µg/mL | inhibition | 17.5%
c1ccc(-c2oc3ncnc(NCCCN4CCOCC4)c3c2-c2ccccc2)cc1 | CSNK1A1 | binding, SPR |  | Kd | > 50 µM
Cc1cc(NS(=O)(=O)c2ccc(N=NN(O)c3ccccc3)cc2)no1 |  | DPPH scavenging, absorbance | 60 µg/mL | inhibition | 24.4%
CNc1ncc2c(/C=C/C(=O)N3CCC(OC)CC3)nn(Cc3cccc(C(F)(F)F)c3)c2n1 | Serine/threonine-protein kinase PLK1 (PLK1, Homo sapiens, UniProt P53350) | enzyme activity, inhibitor, radiometric | 1 µM | remaining activity | 109%
Cc1cc([C@@H](C)Nc2ccccc2C(=O)O)c2nc(N3CCC(F)(F)CC3)c(C#N)c(=O)n2c1 | Phosphatidylinositol 4,5-bisphosphate 3-kinase catalytic subunit gamma isoform (PIK3CG, Homo sapiens, UniProt P48736) | binding, competition with immobilised ligand | 1 µM | remaining binding | 100%
